Measured values collected from several papers.
Each numbered part is a random draw from the data of one study; scales do not carry over between parts.

Block 1
Target: RNA binding protein fox-1 homolog 2, RRM domain, GST-SBP tag (RBFOX2, Homo sapiens, UniProt O43251-10, residues 100-194)
Technique: RNA Bind-n-Seq
Form: RNA
Medium: in vitro
Concentration: 365 nM
Setting: natural RNA segment, single round, ends assumed
Baseline: no-protein control
Reading: higher = stronger binding
Construct (chain): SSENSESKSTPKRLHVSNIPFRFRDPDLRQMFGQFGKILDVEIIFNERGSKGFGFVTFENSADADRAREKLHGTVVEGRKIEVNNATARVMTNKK
| Oligonucleotide | RBNS enrichment (R) |
| --- | --- |
| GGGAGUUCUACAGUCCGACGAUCGAGUGUGGCUGAUGGCCUGGGAGGUGGGUUUUCCAUAAUCAUUUCCAUUUGCUAGUUCUCAUGUGAUAUGCAACGGUCCAAGAUGGUUAUCUGAAUCAGGAUAGAACACCUGGAAUUCUCGGGUGCCAA | 0.565 |
| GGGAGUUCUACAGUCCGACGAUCGGUUGAGGGGACACUUUGACCCUCCAAGGUAACAGCCAGUCAGAUGGCUUGAGGUGCCUGGCCCAUGCUGCCGGCUAAAUGCCAUCCAGUGUGCCCAGCAGUUUCAGACCUGGAAUUCUCGGGUGCCAA | 0.19 |
| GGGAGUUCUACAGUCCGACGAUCUUUUUUGAGACAGGAUCUCACUCUGUUGCCAGGGCUGUAGUGCAGUGGUGUGAUCAUAGCUCACUGCAACCUCCACCUCCCAGGCUCAAGCCUCCCGAAUAGCUGGGACUUGGAAUUCUCGGGUGCCAA | 0.295 |
| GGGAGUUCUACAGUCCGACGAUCACAAAAAAGCCCCCACCAAUGAGUUCUACGCAUGAAGCUUCCUCCCGCGAGCGCUGCUUGGACUUAUUGGGGAGAGGAGUGGAGGGUUGUGGGUGGCGGGCGUUGGCAGAUGGAAUUCUCGGGUGCCAA | 7.96 |
| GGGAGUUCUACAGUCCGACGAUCGGCCAUCUUUAAUGUGGGCACCAGAGACUCGGAGCGGUCCUUUUGCUUCAAAGACAGGAGUUCACUGGGGGAUUCAGAAAGCUUGCCGUUUAUGUUGGUCGCAUCAAACAUGGAAUUCUCGGGUGCCAA | 1.59 |
| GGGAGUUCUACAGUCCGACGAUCUUCUUGCCUUACUACAGUGAUGGUCCCAGUGGAUAGAGCAGCUGCACUGGGCAACCUCAUCUUGCCUGCUCUCCCGCACCUGCUGGGACAUGAGCAUCUUGGGAUAUCUCUGGAAUUCUCGGGUGCCAA | 0.532 |
| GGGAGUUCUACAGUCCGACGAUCUAUUUCUUUUCUCCCUGCUCUUGAGUGUCCUUGUCCUGCCCUCCCAUUCCAGCCGUGAUGAGCAUUGUGAUCCGAGUGGGUGCCACGUGAGAGAGGGACUGUCACUUUCCUGGAAUUCUCGGGUGCCAA | 1.33 |
| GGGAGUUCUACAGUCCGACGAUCUUUGGAAGCAAAAGAUUAUUUUCUCUUAACAAGACUUUUUGUACUGAAAACAAUUUUUUUGAAUCUUUCUUAGCCUAAAAGACCCAUUUUCCUUGGAACAUGUAAGAACUUGGAAUUCUCGGGUGCCAA | 0.35 |
| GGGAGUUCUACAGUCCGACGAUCUGCCCUGUCUGCUCUGCUGCUACAGAGGGGCAGGGCCUCCCCCAGCCCACGCUUAGGAAUGCUUGGCCUCUGGCAGGCAGGCAGCUGUACCCAAGCUGGUGGGCAGGGGGUGGAAUUCUCGGGUGCCAA | 0.592 |
| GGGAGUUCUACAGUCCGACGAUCUCCAGGUAGGACAGCUGCUCCCCAAGCCUCCUGAGGACACAGGAAGAGACGGAAGGAGCACCUUGACAGACUUGUGUGAGUCUUCUCGAAGGAGGGUUGACUCAGAACCCUGGAAUUCUCGGGUGCCAA | 0.62 |
| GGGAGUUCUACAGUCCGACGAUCCCUUAAAGAGGGACAGGCUGAAGAGAGGGACAGGCACUCCAAACCUGUCUUGGGGCCACUUUCAGAGCCCCCAGCCCUGGGAACCACUCCCACCACAGGCAUAAGCUAUCUGGAAUUCUCGGGUGCCAA | 0.272 |
| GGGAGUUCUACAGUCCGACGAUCCAGAAGGCAUCUGGCUCUGAGUUAUAAAUUACUUCCCUGGUCCUGACAGUCACCUGGGGUCCCCCCUCUCCCUGGUUCCACCUUUCUGAGGAGGAGCCUGGAGUCAGGGCUGGAAUUCUCGGGUGCCAA | 0.147 |

Block 2
Target: RING finger protein unkempt homolog, zinc fingers 1-6, GST-SBP tag (UNK, Homo sapiens, UniProt Q9C0B0, residues 30-357)
Sequence of UniProt Q9C0B0 (30-357, looked up): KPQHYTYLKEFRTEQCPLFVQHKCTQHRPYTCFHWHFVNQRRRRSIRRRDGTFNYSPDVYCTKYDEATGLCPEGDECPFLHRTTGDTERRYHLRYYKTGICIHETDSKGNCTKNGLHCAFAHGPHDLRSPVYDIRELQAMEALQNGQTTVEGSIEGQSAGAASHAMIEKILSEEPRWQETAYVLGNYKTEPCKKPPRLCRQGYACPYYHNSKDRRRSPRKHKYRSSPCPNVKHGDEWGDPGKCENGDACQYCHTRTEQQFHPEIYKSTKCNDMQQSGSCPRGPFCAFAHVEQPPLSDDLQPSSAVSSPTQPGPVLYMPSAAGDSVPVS
Technique: RNA Bind-n-Seq
Form: RNA
Medium: in vitro
Concentration: not given
Setting: RNA with constant flanks, human and mouse sites, ends assumed
Baseline: input RNA pool
Reading: higher = stronger binding
| Oligonucleotide | bound/input enrichment |
| --- | --- |
| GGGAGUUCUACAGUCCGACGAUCGGUGUGCCAGCUCUGACGCAGAACCUACCAAGGAUACUCAGAAAAGAACGCCCUAUAUCAUUAGGAAUUUUCCCAUUACCUGCUGGAGAUGGAUUGCUUACACCUGAUGCUCAGAAAGGACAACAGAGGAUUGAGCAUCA | 1.71 ratio |
| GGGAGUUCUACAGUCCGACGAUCUGGGCGCAGCAGUGUGGGGACACUGCUCUUGGAUGCCCUGGCUUUCUCCUGAAAUCGUGCCUUAGCUUCAGUCUUGCAGCUAUCAGGAUGGGGUGAAGCUGUGGUGCUGCCCCCCACCCUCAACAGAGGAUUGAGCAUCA | 0.129 ratio |
| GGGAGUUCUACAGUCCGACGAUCCAUUCAAGAAAGAAACUUUACAAAUGCAGGGAAUGUGACAAAUCCUUUACUAGCAGCUCAUAUGUCAGAAUACAUCAGAGAAUUCAUUCAGGAGAGAAACCUUACAAAUGUAGUGAGUGUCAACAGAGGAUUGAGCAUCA | 0.349 ratio |
| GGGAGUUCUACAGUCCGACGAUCACAAAACUACAUGAUACGUUUGGAUUUGUGGAUGAAGAUGUAUUCUUUCAGCUUAGUGCUGUCAAAGGGAAAACCCCCCAAGUAGGUGACAGAGUAUUGGUUGAAGCUACUUAUAAUCCUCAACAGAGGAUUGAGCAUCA | 0.549 ratio |
| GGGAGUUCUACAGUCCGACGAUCAGGCUCAUCCAGCCAUAUAUCCAUAACUACUCCUGGCUGCUCUUUGCUGCCCUGGCUCUCUAUAGCGCCCACCUGGCCAGUGCAGAGGAUGUGGAUGGGGAGAAGCUGGACCCCCAGACGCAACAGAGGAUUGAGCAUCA | 0.359 ratio |
| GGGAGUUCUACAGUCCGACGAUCUGUGCAUUGGGUUAAAAACGACAACCAACAUCAGCCAUGAAAGAUCCAAGUCGCAGCAGUACUAGCCCAAGCAUCAUCAAUGAAGAUGUGAUUAUUAACGGUCAUUCUCAUGAAGAUGACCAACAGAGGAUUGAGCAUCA | 0.155 ratio |
| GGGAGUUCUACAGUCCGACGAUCGGGUCUACUAUAUGUAAAAAGUAUACAUAUAAAAAUAUAUAUAUAUAAUGUUUGUUUAAAAUAGAGUAUUUUUAUUUCCUCCCUAACUCAUCAUUGAAGAGGUGAUAUUACACUUCAGAUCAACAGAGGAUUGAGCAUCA | 4.66 ratio |
| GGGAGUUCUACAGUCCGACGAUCUUCCGGGGAGAAGCCUUUCCAGGACCCAUGUGUAGGCACAACUGUUUUCCCUGAUCAGGAUACUUGCGGCACUCAACAGAGGAAAGAAAUUCCUAAGGGAACACUGCUCAGAAAGUACUGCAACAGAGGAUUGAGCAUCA | 0.103 ratio |
| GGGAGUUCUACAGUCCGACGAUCAGAGACCUCCUAAAGACAUUCAGAAUCUCAUCUGACACAUUUAUAACCUACAUGAUGACUUUAGAAGACCAUUACCAUUCUGACGUGGCAUAUCACAACAGCCUGCACGCUGCUGAUGUACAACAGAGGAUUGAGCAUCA | 0.261 ratio |
| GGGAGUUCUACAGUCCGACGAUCGGUUUCCCCAAAGUCAGUAUUCUCCUCAGGGAUGCCAUUGAAAAGUUAUUUCCUGAUGCCAUUAGACUGAGAUUUGAAGACAUUCAGCAGAAUAAUGACAUAGUCCAAAGUCUUGCAGCCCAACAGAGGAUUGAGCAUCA | 0.278 ratio |
| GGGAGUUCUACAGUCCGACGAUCUGUGGCUUUAACAUUUUCUGCAACUAUUUAUGAAGACUUCUGUUAUACAUGUAAUAAAUAUAUAGAAAAAGCACAUACUUCGCAAGUGAGCUUUAUGGUUCUGUGUGUGUUGGGGGUGGGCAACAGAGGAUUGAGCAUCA | 1.22 ratio |

Block 3
Target: Ras GTPase-activating protein-binding protein 1, RRM domain (G3BP1, Homo sapiens, UniProt Q13283)
Sequence of UniProt Q13283 (whole entry, looked up): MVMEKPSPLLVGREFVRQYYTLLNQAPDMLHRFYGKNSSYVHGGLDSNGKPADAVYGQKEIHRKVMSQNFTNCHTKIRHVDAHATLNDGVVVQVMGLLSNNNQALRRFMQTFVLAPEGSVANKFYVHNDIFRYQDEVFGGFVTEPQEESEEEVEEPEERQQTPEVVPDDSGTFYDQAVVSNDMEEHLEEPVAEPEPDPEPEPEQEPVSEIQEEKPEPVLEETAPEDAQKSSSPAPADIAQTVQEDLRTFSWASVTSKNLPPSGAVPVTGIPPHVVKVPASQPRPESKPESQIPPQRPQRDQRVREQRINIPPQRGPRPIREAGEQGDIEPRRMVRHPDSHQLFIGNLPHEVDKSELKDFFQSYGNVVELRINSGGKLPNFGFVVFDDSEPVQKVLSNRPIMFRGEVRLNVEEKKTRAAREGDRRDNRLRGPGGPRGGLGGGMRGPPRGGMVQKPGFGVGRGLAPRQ
Technique: RNA Bind-n-Seq
Form: RNA
Medium: in vitro
Concentration: 1 µM
Setting: whole 134-nt RNA, ends assumed
Added: 150 mM KCl
Baseline: input library
Reading: higher = stronger binding
| Oligonucleotide | log2 enrichment |
| --- | --- |
| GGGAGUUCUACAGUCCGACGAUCCUCAAGUCCUGUGCUACACAUCGUAUGUACCGAAUCGGGAGGGAGGGAAAGGGAAAGUAUUAUGUUACGCCGUUCGGAUCUGCACUUCCAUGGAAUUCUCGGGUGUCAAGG | 0.8 |
| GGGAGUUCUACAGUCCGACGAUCUCCUGUGCUACACAUCGUAUGUACCGAAUCGGGGAAAAAAGGAAAAAAGGGAAAAAAGGAAAGUAUUAUGUUACGCCGUUCGGAUCUGCAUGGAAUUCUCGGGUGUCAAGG | 0.0274 |
| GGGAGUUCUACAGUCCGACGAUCUGUGAGGUGGAUUUUGUUUAUUUUUUUAGCUCAUUUCCAGGGGUGGGAAUUUUUUUUUAAUAUGUGUCAUGAAUAAAGUUGUUUUUGAAAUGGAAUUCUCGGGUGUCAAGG | 1.38 |
| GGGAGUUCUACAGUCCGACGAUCCUCAAGUCCUGUGCUACACAUCGUAUGUACCGAAUCGGGUUGGUUGGGUUGGGAAAGUAUUAUGUUACGCCGUUCGGAUCUGCACUUCCAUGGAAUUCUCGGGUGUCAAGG | 0.0182 |
| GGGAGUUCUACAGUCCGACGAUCAAGUCCUGUGCUACACAUCGUAUGUACCGAAUCGGAAAAGGGAAAAGGGAAAAGGGAAAGUAUUAUGUUACGCCGUUCGGAUCUGCACUUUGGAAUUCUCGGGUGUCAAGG | -0.0471 |
| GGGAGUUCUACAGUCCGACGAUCUAACUUUAGAGGAGGAUCUGAUGGAUAUGGCAGUGGACGUGGAUUUGGGGACGGCUAUAAUGGGUAUGGAGGAGGACCUGGAGGUGGCAAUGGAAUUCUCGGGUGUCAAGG | -0.397 |
| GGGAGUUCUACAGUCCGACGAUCGCAGGAUGUAAAAACAAAUGGAAAUGCUUCGGAUAGUGGCAGGGGUGGGGGUUGCUAAGGAAAGGGUGGGAUGGGAGUGGGUAAAGAGUUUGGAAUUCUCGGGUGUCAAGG | 1.13 |
| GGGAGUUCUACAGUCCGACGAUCCCUCAAGUCCUGUGCUACACAUCGUAUGUACCGAAUCGGUUUUUGGUGGAGGAAAGUAUUAUGUUACGCCGUUCGGAUCUGCACUUCCAGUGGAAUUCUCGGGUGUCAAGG | -0.188 |
| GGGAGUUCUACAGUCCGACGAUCACCAUGCAGGUGGGCAACUUUGGGAAGUGGGGCAAGGGGGGGAUAGGGAGGGGGGUAACACUUUGGGAACAGGUGGUCCCAGGUCGUUUCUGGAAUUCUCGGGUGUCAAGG | -0.544 |
| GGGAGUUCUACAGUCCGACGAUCGCAGGAAGUAAAAACAAAUGGAAAUGCUUCGGAUAGUGGCAGGGGCGGGGGUUGCUAAGGAAAGGGUGGGAUGGGAGUGGGUAAAGAGUUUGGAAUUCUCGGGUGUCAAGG | 0.617 |

Block 4
Target: Sal-like protein 4, full length isoform B (SALL4, Homo sapiens, UniProt Q9UJQ4-2, residues 1-616)
Technique: universal PBM
Form: double-stranded DNA, one strand shown
Medium: in vitro
Concentration: not given
Setting: 8-mer, flanks averaged, mean of replicates
Reading: higher = stronger binding
| Oligonucleotide | E-score |
| --- | --- |
| GGAGCCCA | -0.277 |
| AGGATGTA | 0.154 |
| ACCGAGTC | -0.183 |
| AAATATTG | 0.439 |
| ACTATGAT | 0.161 |
| CTTCTGGA | -0.15 |
| GAAGTAGC | -0.0535 |
| CTCCAAGA | -0.137 |
| ATGGGATC | 0.147 |
| TAACGCAA | 0.164 |
| ACTAGTAC | -0.0117 |
| GCTACGAA | 0.0111 |
| AGCAGCTA | -0.104 |
| AACAGGCT | -0.0134 |
| CATCTTGG | 0.0561 |
| AGACACAG | -0.00315 |
| AATTACTA | 0.281 |
| ACCTGCGA | -0.115 |
| GTTCTCTA | 0.0945 |
| CTGGTAAG | 0.0239 |
| CGGTGCGA | -0.273 |
| ATGGTGTA | 0.228 |
| CCACAATC | -0.0833 |
| TGATCGAA | -0.0196 |

Repeated from above (block 4):
| Oligonucleotide | E-score |
| --- | --- |
| TGATCGAA | -0.0196 |
| CATCTTGG | 0.0561 |
| AACAGGCT | -0.0134 |
| AGGATGTA | 0.154 |
| AAATATTG | 0.439 |
